# Results gathered from unrelated publications.
# Lines come from different studies, so protocols differ. Values joined by “and” are separate records of one study, mostly repeats; a detail may differ. ± gives the spread as reported.
# B1: clathrin light chain A; sequence looked up; chain MAELDPFGAPAGAPGGPALGNGVAGAGEEDPAAAFLAQQESEIAGIENDEAFAILDGGAPGPQPHGEPPGGPDAVDGVMNGEYYQESNGPTDSYAAISQVDRLQSEPESIRKWREEQMERLEALDANSRKQEAEWKEKAIKELEEWYARQDEQLQKTKANNRVADEAFYKQPFADVIGYVTNINHPCYSLEQAAEEAFVNDIDESSPGTEWERVARLCDFNPKSSKQAKDVSRMRSVLISLKQAPLVH
# B2: CCT2; sequence looked up; chain ASLSLAPVNIFKAGADEERAETARLTSFIGAIAIGDLVKSTLGPKGMDKILLSSGRDASLMVTNDGATILKNIGVDNPAAKVLVDMSRVQDDEVGDGTTSVTVLAAELLREAESLIAKKIHPQTIIAGWREATKAAREALLSSAVDHGSDEVKFRQDLMNIAGTTLSSKLLTHHKDHFTKLAVEAVLRLKGSGNLEAIHIIKKLGGSLADSYLDEGFLLDKKIGVNQPKRIENAKILIANTGMDTDKIKIFGSRVRVDSTAKVAEIEHAEKEKMKEKVERILKHGINCFINRQLIYNYPEQLFGAAGVMAIEHADFAGVERLALVTGGEIASTFDHPELVKLGSCKLIEEVMIGEDKLIHFSGVALGEACTIVLRGATQQILDEAERSLHDALCVLAQTVKDSRTVYGGGCSEMLMAHAVTQLANRTPGKEAVAMESYAKALRMLPTIIADNAGYDSADLVAQLRAAHSEGNTTAGLDMREGTIGDMAILGITESFQVKRQVLLSAAEAAEVILRVDNIIKAAPRKRVPDHHPC
# B3: DDX47; sequence looked up; chain AAPEEHDSPTEASQPIVEEEETKTFKDLGVTDVLCEACDQLGWTKPTKIQIEAIPLALQGRDIIGLAETGSGKTGAFALPILNALLETPQRLFALVLTPTRELAFQISEQFEALGSSIGVQSAVIVGGIDSMSQSLALAKKPHIIIATPGRLIDHLENTKGFNLRALKYLVMDEADRILNMDFETEVDKILKVIPRDRKTFLFSATMTKKVQKLQRAALKNPVKCAVSSKYQTVEKLQQYYIFIPSKFKDTYLVYILNELAGNSFMIFCSTCNNTQRTALLLRNLGFTAIPLHGQMSQSKRLGSLNKFKAKARSILLATDVASRGLDIPHVDVVVNFDIPTHSKDYIHRVGRTARAGRSGKAITFVTQYDVELFQRIEHLIGKKLPGFPTQDDEVMMLTERVAEAQRFARMELREHGEKKKRSREDAGDNDDTEGAIGVRNKVAGGKMKKRKGR
# B4: DnaJ homolog DNAJC10; sequence looked up; chain DQDFYSLLGVSKTASSREIRQAFKKLALKLHPDKNPNNPNAHGDFLKINRAYEVLKDEDLRKKYDKYGEKGLEDNQGGQYESWNYYRYDFGIYDDDPEIITLERREFDAAVNSGELWFVNFYSPGCSHCHDLAPTWRDFAKEVDGLLRIGAVNCGDDRMLCRMKGVNSYPSLFIFRSGMAPVKYHGDRSKESLVSFAMQHVRSTVTELWTGNFVNSIQTAFAAGIGWLITFCSKGGDCLTSQTRLRLSGMLDGLVNVGWMDCATQDNLCKSLDITTSTTAYFPPGATLNNKEKNSILFLNSLDAKEIYLEVIHNLPDFELLSANTLEDRLAHHRWLLFFHFGKNENSNDPELKKLKTLLKNDHIQVGRFDCSSAPDICSNLYVFQPSLAVFKGQGTKEYEIHHGKKILYDILAFAKESVNSHVTTLGPQNFPANDKEPWLVDFFAPWCPPCRALLPELRRASNLLYGQLKFGTLDCTVHEGLCNMYNIQAYPTTVVFNQSNIHEYEGHHSAEQILEFIEDLMNPSVVSLTPTTFNELVTQRKHNEVWMVDFYSPWCHPCQVLMPEWKRMARTLTGLINVGSIDCQQYHSFCAQENVQRYPEIRFFPPKSNKAYHYHSYNGWNRDAYSLRIWGLGFLPQVSTDLTPQTFSEKVLQGKNHWVIDFYAPWCGPCQNFAPEFELLARMIKGKVKAGKVDCQAYAQTCQKAGIRAYPTVKFYFYERAKRNFQEEQINTRDAKAIAALISEKLETLRNQGKRNKDEL
# B5: Aurora kinase A; sequence looked up; chain MDRSKENCISGPVKATAPVGGPKRVLVTQQFPCQNPLPVNSGQAQRVLCPSNSSQRIPLQAQKLVSSHKPVQNQKQKQLQATSVPHPVSRPLNNTQKSKQPLPSAPENNPEEELASKQKNEESKKRQWALEDFEIGRPLGKGKFGNVYLAREKQSKFILALKVLFKAQLEKAGVEHQLRREVEIQSHLRHPNILRLYGYFHDATRVYLILEYAPLGTVYRELQKLSKFDEQRTATYITELANALSYCHSKRVIHRDIKPENLLLGSAGELKIADFGWSVHAPSSRRTTLCGTLDYLPPEMIEGRMHDEKVDLWSLGVLCYEFLVGKPPFEANTYQETYKRISRVEFTFPDFVTEGARDLISRLLKHNPSQRPMLREVLEHPWITANSSKPSNCQNKESASKQS
Substance,target or system,assay,test system,setting,how to read,endpoint,value
QTNPYPTGP,Mamu-B*08301 MHC class I,peptide binding,"peptide, Chinese rhesus macaque",,,IC50,> 20 µM
aspterric acid,,hypocotyl length,Arabidopsis thaliana Col-0 seeds,"6.25 µg/mL, seed germination",reference: water control,inhibition,69.5%
BCLAF1,,"peptide binding, SILAC pull-down",,concentration not given,reference: non-acetylated over acetylated NIT1 peptide,log2 fold change,-0.226
KEVDSSSHM,Mamu-B*08301 MHC class I,peptide binding,"peptide, Chinese rhesus macaque",,,IC50,> 20 µM
(−)-antroquinonol A,HepG2,"cytotoxicity, MTS",,72 h,,IC50,> 25 µM
B1 (clathrin light chain A),,"peptide binding, SILAC pull-down",,concentration not given,reference: non-acetylated over acetylated NIT1 peptide,log2 fold change,2.61
hexaarginine,PorA peptide pore,"peptide binding, planar bilayer single-channel recording",,"0.5 µM, pH 7.4, -20 mV, cis side, 150 mM KCl",,kon,1.85e+07 ± 2e+06 M⁻¹ s⁻¹
polymyxin B,,calcein leakage,DOPC/DOPG/CHOL liposomes,"concentration not given, added: 20 wt% PEG-8000",,maximum fusion,48 ± 1%
insulin human,,measured: DLG4,"mouse, uninfected, brain","ip, dose not given, added: insulin",reference: PBS-treated,mRNA fold change,1.09
colistin,Aspergillus fumigatus,,"pkcA G579R, solid minimal medium","100 µM, 4 days, 37 °C",reference: untreated,radial growth ratio,0.738 and 0.773 and 0.756
lead,glioblastoma,CCK-8,,"1 µM, 24 h, unit not given",reference: untreated control,viability,1.01
orexin-B,non-responsive control sensor,"sensor fluorescence, fluorescence imaging",HEK293T,"10 µM, added: OXB 10 µM",reference: baseline,maximal ΔF/F0,-48.7% and 6.48% and -9.88% and 5.11% and -2.09% and 0.803%
KLPQLCTEL,ASPC1 (HLA-A2− HPV−),111In release,peptide,"concentration not given, 16 h, E:T 25:1, IVS 5, added: peptide-generated T-cell line",,specific lysis,0.3% and 2.4%
B2 (CCT2),,"peptide binding, SILAC pull-down",,concentration not given,reference: non-acetylated over acetylated NIT1 peptide,log2 fold change,1.07
mitragynine,,substrate,human liver S9,10 min,,Vmax,0.093 nmol/min/mg protein and 0.0931 nmol/min/mg protein
B3 (DDX47),,"peptide binding, SILAC pull-down",,concentration not given,reference: non-acetylated over acetylated NIT1 peptide,log2 fold change,0.0618
RTLEDLLMGT,HN-4 (HLA-A2+ HPV+),111In release,peptide,"concentration not given, 16 h, E:T 25:1 IVS 5, added: peptide-generated T-cell line",,specific lysis,25.8%
pertussis toxin,,immunostaining,"humanized mouse, SAH model, middle cerebral artery",dose not given,,p-PKA level,27.3 MFI
GWTLNSAGYLLGPRRIDHLLMIKEMPIARGREEAPGA / YAVDNHRSFNDKHGFT-NH2 (C-amide),,"RT-qPCR, measured: Tnf","chicken, DSS-induced colitis, ileum","ip, 50 µM, unit not given",reference: Actb,mRNA level,2.88 and 4.06 and 4.67 and 4.04 and 5.19 and 3.72 and 3.6
nonaarginine,PorA peptide pore,"peptide binding, planar bilayer single-channel recording",,"0.5 µM, pH 7.4, +10 mV, trans side, 150 mM KCl",,koff,28.6 ± 3 s⁻¹
B4 (DnaJ homolog DNAJC10),,"peptide binding, SILAC pull-down",,concentration not given,reference: non-acetylated over acetylated NIT1 peptide,log2 fold change,-0.488
GWTLNSAGYLLGPHAVDNHRSFNDKHGFT-NH2 (C-amide),,"RT-qPCR, measured: Il1a","peptide, mouse, DSS-induced colitis, colon","ip, 3 µM, 3% DSS, unit not given",reference: Gapdh,mRNA level,0.879 and 0.322 and 1 and 0.902 and 0.43
cisplatin,HeLa,cell growth,,,,IC50,4 ± 1 µM
ANKRD17,,"peptide binding, SILAC pull-down",,concentration not given,reference: non-acetylated over acetylated NIT1 peptide,log2 fold change,-0.207
QLYNKPLCDV,ASPC1 (HLA-A2− HPV−),111In release,peptide,"concentration not given, 16 h, E:T 25:1, IVS 5, added: peptide-generated T-cell line",,specific lysis,0.3%
BUB3,,"peptide binding, SILAC pull-down",,concentration not given,reference: non-acetylated over acetylated NIT1 peptide,log2 fold change,-1.63
NSGEETIGE,Mamu-B*08301 MHC class I,peptide binding,"peptide, Chinese rhesus macaque",,,IC50,> 20 µM
B5 (Aurora kinase A),,"peptide binding, SILAC pull-down",,concentration not given,reference: non-acetylated over acetylated NIT1 peptide,log2 fold change,0.448
EFTEDELPSDSCVFGGQKLTL,IKK from HEK-293T cells,Western blot,peptide,"500 µM, 30 min, 30 °C, added: 6xHis-IκBα wt 1 µM",reference: no-peptide control,IκBα phosphorylation,66% and 37% and 62%

# Some of these lines once more:
Substance,target or system,assay,test system,setting,how to read,endpoint,value
(−)-antroquinonol A,HepG2,"cytotoxicity, MTS",,72 h,,IC50,> 25 µM
lead,glioblastoma,CCK-8,,"1 µM, 24 h, unit not given",reference: untreated control,viability,1.01
